Results from different studies.
Each numbered part is a random draw from the data of one study; scales do not carry over between parts.

Block 1 — technique: competition protein-binding microarray; form: double-stranded DNA, one strand shown; matrix: in vitro; concentration: 2 µM; together with: Pho4 competitor, 0.05 µM; reading: higher = stronger binding; constant ends, left off below: … GTCTTGATTCGCTTGACGCTGCTG
Target: Centromere-binding protein 1, full length, His-tagged (CBF1, Saccharomyces cerevisiae, UniProt P17106, residues 1-351)
Sequence of UniProt P17106 (whole entry, looked up): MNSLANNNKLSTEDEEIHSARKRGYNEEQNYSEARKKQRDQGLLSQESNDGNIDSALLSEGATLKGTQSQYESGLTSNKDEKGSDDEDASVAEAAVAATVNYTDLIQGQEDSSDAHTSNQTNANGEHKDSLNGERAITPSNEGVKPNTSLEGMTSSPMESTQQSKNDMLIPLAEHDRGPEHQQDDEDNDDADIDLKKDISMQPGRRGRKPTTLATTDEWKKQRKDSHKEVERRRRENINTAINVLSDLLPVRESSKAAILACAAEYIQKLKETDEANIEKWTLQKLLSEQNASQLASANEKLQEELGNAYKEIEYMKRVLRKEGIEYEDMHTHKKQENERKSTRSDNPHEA
Setting: whole 60-bp probe, lowest competitor level
Oligonucleotide	fluorescence intensity
CTTCTGTAAATTTGTCACGCTACTTGACGCGCCCCG	280 a.u.
TACTCAGAATATGAAAACGTGTCGGACGGGGATGAC	177 a.u.
GAAATGGAGCATTCACACGTGAAGATTTTTAGGGGA	646 a.u.
GTCTTGTCTCATTAGCACGTGTTTTTCCCCACTTCA	2420 a.u.
CTAACGAAGGTTTGAGCTGTGGGTGACAAGCCAAGT	68.3 a.u.
TGCGCAACAACTTGAGTTGTGGGTGTATGTCTAGAA	73.1 a.u.
TCTTCTTTTGGTTGGCATGCGTGTAGGCTTCAAGGT	98.5 a.u.
GCCCATCGAAATTAGCACGATAGAGGAAGAGCAATC	67.4 a.u.
GGGTTAAAACTTCACCACGTTTGTAGCGGAGCAATG	97.7 a.u.
TCGTCGATGAAGCTGAACGTGCAAAGCTGGACTTAC	83.8 a.u.
CCCGCGGGTCGCTATCACGATTCAGCACCCTTTGGA	69.7 a.u.
CATACCCAACCTTGTGAGGTGGGTGAAGATATTTGT	61 a.u.
TAACAACAGGACCATCACGTGAAACTTCGACGGCTT	1650 a.u.
CGGCCGGGTGAAAAGCACGTCGTTTAGGGGGGACCC	98.7 a.u.
TTCTTTGCCCTCTTGCTCGTGTGGATTCCTTTCCGC	71.3 a.u.
TACCAAAAGTATTCATACGTGGCCGCTTGTTACCCC	64 a.u.
CCTCCGTTAGGTTGTCATGCCCCGAGGGTGCGAGGT	76 a.u.
AATTGGCTTGAAGGAAACGTGAGAACCATTAACACA	132 a.u.
CTTCTGTAAATTTTTCACGTGTACTGACGCGCCCCG	800 a.u.
CTAACGAAGGTTTGTCACTAAACTTACAAGCCAAGT	67.3 a.u.
AAAGCCGTTCTTCGTCACGTGACTCGAAGTTGTAGC	30700 a.u.
TATGGGTTGTCTGAACCCGTGACTCGTAGATCAGAA	1080 a.u.
ACCTATAACAAGCATCACAGCATATCAATGGGCGGT	78.3 a.u.
CATACCCAACCTTTTCACGTGAATTAAGATATTTGT	1040 a.u.
AACCAGAGCCCAATAAACGTGGTCGTTGTCGAGTAG	96.6 a.u.

Block 2 — technique: RNA Bind-n-Seq; form: RNA; matrix: in vitro; concentration: 200 nM; setting: whole 134-nt RNA, ends assumed; together with: 150 mM LiCl; reference: input library; reading: higher = stronger binding; all molecules: 7-deaza-guanosine replaces G
Target: Ras GTPase-activating protein-binding protein 1, full length (G3BP1, Homo sapiens, UniProt Q13283)
Sequence of UniProt Q13283 (whole entry, looked up): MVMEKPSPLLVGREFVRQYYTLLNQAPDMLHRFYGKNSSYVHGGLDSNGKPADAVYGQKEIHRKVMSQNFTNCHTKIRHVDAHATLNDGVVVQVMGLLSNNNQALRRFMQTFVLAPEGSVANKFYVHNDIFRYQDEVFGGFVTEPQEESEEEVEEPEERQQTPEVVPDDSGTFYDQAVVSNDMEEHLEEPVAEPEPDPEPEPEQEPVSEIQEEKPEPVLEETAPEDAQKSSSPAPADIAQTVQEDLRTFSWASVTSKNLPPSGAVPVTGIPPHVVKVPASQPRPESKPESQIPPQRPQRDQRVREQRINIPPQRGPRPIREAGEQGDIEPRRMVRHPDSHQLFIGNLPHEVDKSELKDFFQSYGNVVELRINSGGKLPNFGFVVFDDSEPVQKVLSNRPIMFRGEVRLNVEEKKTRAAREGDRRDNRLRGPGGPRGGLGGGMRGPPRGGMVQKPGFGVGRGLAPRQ
Constant ends, left off below: GGGAGUUCUACAGUCCGACGAUC … UGGAAUUCUCGGGUGUCAAGG
Oligonucleotide	log2 enrichment
AGUCCUGUGCUACACAUCGUAUGUACCGAAUCGGUUUUUGGGUUUUUGGGGUUUUUGGAAAGUAUUAUGUUACGCCGUUCGGAUCUGCAC	0.074
CCUCAAGUCCUGUGCUACACAUCGUAUGUACCGAAUCGGAGGUUUUUGGUGGAAAGUAUUAUGUUACGCCGUUCGGAUCUGCACUUCCAG	-0.318
AAGUCCUGUGCUACACAUCGUAUGUACCGAAUCGGGAGGGAAAAAAAGGGUUUGGGAAAGUAUUAUGUUACGCCGUUCGGAUCUGCACUU	-1.75
GUCCUGUGCUACACAUCGUAUGUACCGAAUCGGCCCCCGGCCCCCGGGGCCCCCGGGGAAAGUAUUAUGUUACGCCGUUCGGAUCUGCAC	-0.829
CUCAAGUCCUGUGCUACACAUCGUAUGUACCGAAUCGGCCGGGCCGGGGCCGGAAAGUAUUAUGUUACGCCGUUCGGAUCUGCACUUCCA	0.613
CACAGACAACACGCACCCACACAGACACAGAGGGAAGGGGUUGGGAUGGGGACGGGGUGCACAGCAGGGCGGGGUAGGACCCCAGCCCCU	-0.511
UCAAGUCCUGUGCUACACAUCGUAUGUACCGAAUCGGUUUUUGGUGGAAAAAGGAAAGUAUUAUGUUACGCCGUUCGGAUCUGCACUUCC	-0.363
AGUCCUGUGCUACACAUCGUAUGUACCGAAUCGGGGAGGGGUUUUUUUGGGGAGGGGAAAGUAUUAUGUUACGCCGUUCGGAUCUGCACU	0.535
CUCAAGUCCUGUGCUACACAUCGUAUGUACCGAAUCGGGAGGGAAAGGGAGGGAAAGUAUUAUGUUACGCCGUUCGGAUCUGCACUUCCA	0.0611
CCUGUGCUACACAUCGUAUGUACCGAAUCGGGUUUUUUGGGUUUUUUGGGGUUUUUUGGGAAAGUAUUAUGUUACGCCGUUCGGAUCUGC	0.37
ACCAUGCAGGUGGGCAUCUUUGGGAAGUGGGGCAAGGGGGGGAUAGGGAGGGGGGUAACACUUUGGGAACAGGUGGUCGCAGGUCGUUUC	-0.00607

Block 3 — technique: RNA Bind-n-Seq; form: RNA; matrix: in vitro; concentration: 365 nM; reference: no-protein control; reading: higher = stronger binding
Target: RNA binding protein fox-1 homolog 2, RRM domain, GST-SBP tag (RBFOX2, Homo sapiens, UniProt O43251-10, residues 100-194)
Setting: natural RNA segment, single round, ends assumed
Constant ends, left off below: GGGAGUUCUACAGUCCGACGAUC … UGGAAUUCUCGGGUGCCAA
Construct (chain): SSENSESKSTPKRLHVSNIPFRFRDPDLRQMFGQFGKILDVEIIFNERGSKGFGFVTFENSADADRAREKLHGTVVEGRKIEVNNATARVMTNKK
Oligonucleotide	RBNS enrichment (R)
CUUGCUUGCUUUCUGUUCCUUCUAGCCUUGGUGACUUCCACCAGGAAGAGAAUACCCCCUCUCUACCCCUGCUCCAAGACACUGUAGAUGCUAGUGUCGGAGUGUUCUCU	2.05
UUUUUUAGGGCGUGUGCCCUGUUACACUUAUAGGGCCUAGGAUGCUUGUGUUGAGUAAAAAGGAGAUGCCCCAAUAUUCAAAGCUGCUAAAUGUUCUCUUUGCCAUAAAG	0.457
UUUGAUGGGAAGAAAAGGUACAUGUUUACAAAGAGGUUUUAUGAAAAGAAUAAAAAUUGACUUCUUGCUUGUACAUAUAGGAGCAAUACUAUUAUAUUAUGUAGUCCGUU	2.04
GUAGGCCUCUUGACUUUCUUACAUGACUUUCUGCUAAACUACUUUUCAUUUUAAGGGCACACGCAGCAGAGGCUGGUUUGGAGACUAACACAUUUUGCAUUCUGCAUUGU	0.502
UAGAGACAGGAACAUUGACUUGAACAUAUGUAUGUAAGAGUCCAGGCUCAUUCUGAGUUGAUGAAAAGUCUUGUUUGGACUUCUGCAGGGUUUGACUCCCUGGACACUCU	0.301
GGGCCCGCUAAGUUCUGCUGAGCAGGCCUGUCCACGCUGUUCCUUACCGGUGAGACUGGGCUUGGACUGUACAAGACUUGAGUCCUAGACCUGGGUGUAUUUGCACUUUG	0.243
AUAACUAAGCCUGUAAUUGGGCUGGUUUCUCUUACACCCUAGCACAGUUAAAAAAUGAAGUACUGUUUAACAUUUGCUCCCGAAAUAUUUCUUACUGUGUAAAAGAAGCU	0.575
UUUCAAGUAGCCAAUUUUGCCUUUUUAUGUAUUUUUACAUAGUUUCCUCUUCAAGAAAAAAAAAGCAGAGUUUUUUUGCUUUUCAACUCUAUUUUGUUCUUAAAUAAGCA	1.85
AAGUAUUUAAUUGACUGCCUGAGAGUCAGCUUUGGGGGCGCUCUCAGUUUGCUUUAGCCAUGACUGCCUGAGAAGUCUUAACCUCUGUGCCUCUCUGUAUCCUAUGGAAA	0.586
UGAUUUAACAGUUUCUGUGUAUGUUAAACUUUCAAGUGUUUUUUUAAAUCAUAAUGUGUAAUAAUUGUGUAUCAUUUUGUCUACAAUAAAACGUUUAGUAUUUGCAAUGG	1.13
AGAAGGCUGGAGGUGACAUGUCCGAGGUCACACAACAAAGCAGCAUGCAGGAACUAGAAACACAUCUUCAGCCUCCUCCUGGGCCAGCUCUUGUGCUACAGGUGGGGCGG	13.8
AAGGAGGACAACCAUCUAUAACUUGGUGUCAUUGACAACUAUAUUAAUGUUUAUCCAGCUGCCGUAGUUUGAAACAUUCUGGGCUGGGAGAAGAGGGACCCCGGGGUUUC	0.479

Block 4 — technique: protein-binding microarray; form: double-stranded DNA, one strand shown; matrix: in vitro; concentration: 2540 nM top; setting: 60-bp whole probe; together with: salmon DNA 0.4 mg/ml; reference: random background probes; reading: higher = stronger binding; constant ends, left off below: GCCTAGCAC … GTCTTGATTCGCTTGACGCTGCTG
Target: Interferon regulatory factor 3, full length, phosphomimetic (IRF3, Homo sapiens, UniProt Q14653, residues 1-427, S386D/S396D/S398D/S402D/T404D/S405D)
Sequence of UniProt Q14653 (whole entry, unmodified, looked up): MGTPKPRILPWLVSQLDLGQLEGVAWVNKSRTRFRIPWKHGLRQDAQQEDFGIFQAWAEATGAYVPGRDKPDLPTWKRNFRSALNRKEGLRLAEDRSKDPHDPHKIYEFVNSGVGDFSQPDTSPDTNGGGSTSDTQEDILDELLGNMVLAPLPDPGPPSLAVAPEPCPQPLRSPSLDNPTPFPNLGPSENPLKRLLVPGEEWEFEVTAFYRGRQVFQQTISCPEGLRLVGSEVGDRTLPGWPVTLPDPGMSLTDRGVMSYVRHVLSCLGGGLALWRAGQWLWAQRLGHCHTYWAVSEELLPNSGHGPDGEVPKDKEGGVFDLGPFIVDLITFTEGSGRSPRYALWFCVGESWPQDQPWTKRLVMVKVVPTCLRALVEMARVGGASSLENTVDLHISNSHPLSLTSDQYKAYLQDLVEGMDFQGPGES
Oligonucleotide	fitted relative affinity [z-score]
GACGGTATCCTTCTGCTGACGTGCTAG	4.38
TGCTATACCACTCTTGCTTTGTGCTAG	-0.114
TTAGGTTTCGACACGGGGTTAGTGCTA	1.89
TTAGGTTTCCTCCTGCTTTAGTGCTAG	3.31
TTAGATATCGGGTATCCATTAGTGCTA	0.575
GACGGTCTCGGTCTCAGGACGTGCTAG	1.27
TTAGGTCTCCTACTGGTTTAGTGCTAG	0.777
GACGAACTGGGGAATGGAGACGTGCTA	-0.154
GACGAACTGGGTTTTCGAGACGTGCTA	0.0947
TTAGATTCCAGTTTCCATTAGTGCTAG	5.91
GACGGTTTCGGTTTCGGAACGTGCTAG	11.8
TTAGATTCCAGATTCGATTAGTGCTAG	3.45
TGCAACATCCCAATGGCCCTGTGCTAG	-0.05
TTAGGTCTCCTTTTCTTTTAGTGCTAG	4.89
GACGTTTTCCTTCTCCTGACGTGCTAG	7.11
GATGATTTCAGTCTCGAGACGTGCTAG	1.97
TGAAATCTCTTTCCTTACTTGTGCTAG	3.12
TCACTTCCCCTCTCTTTCACTGTGCTA	2.62
GACGAACTGGGGACTGGATACGTGCTA	-0.458
AACGGACTGGGACTGGGGACGTGCTAG	-0.823
TTAGGTTTCGGTAGCGGTTAGTGCTAG	5.04
GACGGAATGGGGACTGGGGACGTGCTA	-0.613

A few entries again (block 2):
Oligonucleotide	log2 enrichment
ACCAUGCAGGUGGGCAUCUUUGGGAAGUGGGGCAAGGGGGGGAUAGGGAGGGGGGUAACACUUUGGGAACAGGUGGUCGCAGGUCGUUUC	-0.00607
CCUGUGCUACACAUCGUAUGUACCGAAUCGGGUUUUUUGGGUUUUUUGGGGUUUUUUGGGAAAGUAUUAUGUUACGCCGUUCGGAUCUGC	0.37
CUCAAGUCCUGUGCUACACAUCGUAUGUACCGAAUCGGCCGGGCCGGGGCCGGAAAGUAUUAUGUUACGCCGUUCGGAUCUGCACUUCCA	0.613
GUCCUGUGCUACACAUCGUAUGUACCGAAUCGGCCCCCGGCCCCCGGGGCCCCCGGGGAAAGUAUUAUGUUACGCCGUUCGGAUCUGCAC	-0.829
CACAGACAACACGCACCCACACAGACACAGAGGGAAGGGGUUGGGAUGGGGACGGGGUGCACAGCAGGGCGGGGUAGGACCCCAGCCCCU	-0.511
